# Measurements from different studies.
# Parts stem from different laboratories: compare values within a part only. Changes are numbered by the printed parent chain.

# Block 1 — technique: protein binding microarray; form: double-stranded DNA, one strand shown; sample: in vitro; concentration: not given; relative to: not given; direction: higher = stronger binding
# Target: Histone acetyltransferase KAT6A, winged helix 1, GST fusion (KAT6A, Homo sapiens, UniProt Q92794, residues 1-85)
# Setting: 8-mer, flanks averaged, mean of 2 arrays, mostly near background
# Construct (chain): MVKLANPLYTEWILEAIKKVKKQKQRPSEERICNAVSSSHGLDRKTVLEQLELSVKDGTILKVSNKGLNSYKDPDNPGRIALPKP
Sequence,E-score
CAACATAG,-0.163
GCCAAGAA,-0.0803
GACAGATA,-0.0146
AAGGTTCT,-0.128
AAGCCACA,-0.178
CGCCCTTC,0.135
CCCTTACA,-0.0156
AGGGCGTG,0.127
TATTCGCA,-0.0192
GTGACCAC,0.00728
AACGGCTT,0.296
CCAGCTAC,-0.274
CAGATCTG,-0.226
ATCACGGC,0.37
CGTATACC,0.0721
AATTCCGG,0.0921
AAGAGGGC,0.0876
CAACCTTA,-0.0918
AAGTCCCT,-0.156
AATTGTAA,0.0141

# Block 2 — technique: RNA Bind-n-Seq; form: RNA; sample: in vitro; concentration: 365 nM; relative to: no-protein control; direction: higher = stronger binding
# Target: RNA binding protein fox-1 homolog 2, RRM domain, GST-SBP tag (RBFOX2, Homo sapiens, UniProt O43251-10, residues 100-194)
# Setting: natural RNA segment, single round, ends assumed
# Construct (chain): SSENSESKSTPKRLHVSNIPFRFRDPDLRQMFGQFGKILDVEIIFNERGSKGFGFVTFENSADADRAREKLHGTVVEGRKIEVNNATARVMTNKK
Sequence,RBNS enrichment (R)
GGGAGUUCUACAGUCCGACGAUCCUUUGUGGCUUUGGACCUGGACAGGAAGGUCCCACGGACCUUAUGUGAUGCGGGAGGCUCACAAACUUACAAAUCCAACUUUUAUUCUGAGGAACUUACUGUACAAUAUCUGGAAUUCUCGGGUGCCAA,0.547
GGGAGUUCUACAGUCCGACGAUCUGAACGUGGAUUGUAUUUAAGACAUAAACAAAGACAUUGACAGCAAUUCAUGGUUCAAGUAUUAAGCAGUUCAUUCUACCAAGCUGUCACAGGUUUUCAGAGAAUUAUCUUGGAAUUCUCGGGUGCCAA,0.521
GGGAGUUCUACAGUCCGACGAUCUGCACUUUUUGUUCAGAGUUUAAGGCUAGGAUAUUGGUUUUUCCCACUGACUGAGCUGUCCUGCAAACCAGUCAAUACCUUAUGGUUAUGUCUGAAGGUUUUAAAUAGUGUGGAAUUCUCGGGUGCCAA,0.443
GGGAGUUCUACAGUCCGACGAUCCCAUGUUUGUUUGAGGUAGAAGAAUCACCAUAUAAUUCGUUGCCCAAAUUGGGACUAUUGAGAGAGAAAGGGGAUGCUAUUAAUUACACCAGAUCAAAAGGCAUAAACCAUGGAAUUCUCGGGUGCCAA,0.458
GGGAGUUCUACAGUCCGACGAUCCAGGCCAGGCCUGGGUCCUGCCCUCCCAUGGGGUGACUCAUGACCCCUCCAGCCAGGACUCUCCUACAUGUGGCCCCCAUAGGCCUCUGUGGCUGCAAGGCGGUCAGUUGUGGAAUUCUCGGGUGCCAA,0.239
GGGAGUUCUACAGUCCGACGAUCAAGUUGGGCAUCACUUCGUCUUAGCAGUUAGUGGAUUACUGAUUACUAAAAUAGGUUAAUAGUAAGCAAGGUGCCGGUGUACAGUCUCUAACUCGAUCAGUGUCUUUUCAUGGAAUUCUCGGGUGCCAA,0.316
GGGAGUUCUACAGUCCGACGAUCUAUGGGAUUCAACAAAAGCCUAUUAUGCUUGUUUGCAUUAUGGUUACAAUAUUAAAAAGUGGAUUCACUUGGCUGGCUGCUGUCUUCUGUUGGAUUUGCUUGGAGUUUCUUGGAAUUCUCGGGUGCCAA,0.448
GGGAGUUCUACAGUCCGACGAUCGUGUUGCCACCACUUCUAAAAAUUUAGCAAUAUUAGAAUAGGAUACUAGUGAAGUAAGAAAUUUUGCUUGUUGUUUUGCAAACCAAAUAGUUUCCUCAAACACAAAUCAGUGGAAUUCUCGGGUGCCAA,3
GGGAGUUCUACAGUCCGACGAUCGGGAAAAUGCCACAGUGUUCUCCUGAGAGAACAUCCUUGCUUUGAGUCAGGCUGUGGGCAAGUUCCUGACCACAGGGAGUAAAUUGGCCUCUUUGAUACACUUUUGCUUGUGGAAUUCUCGGGUGCCAA,0.89
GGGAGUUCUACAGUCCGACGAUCUUGGCUUUAUUGAUGCACGGAUGCUUUUGAACAGUAGAGCGAAAUGCUAGACAUGGAGAACUUGCUCUGUUUGUCCUUUCUACAUUUCUGUAGUUAACAGAACACUGUAAUGGAAUUCUCGGGUGCCAA,2.35
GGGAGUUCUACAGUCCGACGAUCAAGCUCUUGGCUUGGAGUCCCGUGUCGUCUCCACCCAGAGGAAGUUCUCCAGAGUUCACCUUUCCCUUUUCCUUGAGUUGUGCUGAAUGCCCCACCCCAGCUCUCUUUCCUGGAAUUCUCGGGUGCCAA,1.12
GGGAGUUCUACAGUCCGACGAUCUUCCUGCAUUCAGGAUGUGAGGCCAUUUAAUAAAAAGGGCACAAAGCCUGUCAGAGUUUUCAACGGUGCUUAUAGCUGCCAGCUGGAUUCCAAACAGGUACCACAUUGUCUGGAAUUCUCGGGUGCCAA,0.208

# Block 3 — target: CCND3, cyclin fold, Cln2 fusion (human); technique: yeast growth competition, sequencing; sample: yeast; setting: weak parent motif; relative to: not given; direction: higher = stronger binding
# Starting sequence: CDKN1B docking peptide (human); PSACRNLFGPVDH; partner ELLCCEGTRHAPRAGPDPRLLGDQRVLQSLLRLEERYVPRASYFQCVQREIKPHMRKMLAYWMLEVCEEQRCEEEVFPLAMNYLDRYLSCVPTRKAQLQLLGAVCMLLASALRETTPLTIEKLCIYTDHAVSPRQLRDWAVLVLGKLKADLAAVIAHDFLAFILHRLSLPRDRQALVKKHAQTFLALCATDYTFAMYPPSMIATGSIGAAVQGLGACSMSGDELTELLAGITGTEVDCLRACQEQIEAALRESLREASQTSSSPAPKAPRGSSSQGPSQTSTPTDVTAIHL
Substitution,normalised enrichment score
P1C,0.097
A3D,0.0226
C4D,0.111
L7I,0.199
N6S,0.155
R5C,0.0522
S2H,0.136
H13S,0.0251
N6H,0.113
G9W,0.123
S2C,0.0911
F8D,0.0725
D12Q,0.161
G9Y,0.144
H13D,0.103
F8C,0.0719
R5K,0.185
F8H,0.126
S2R,0.129

# Block 4 — technique: Sort-seq; refers to: YFP reporter; sample: E. coli; setting: PhoQ-PhoP variant library; with: 10 µM Mg2+; relative to: high Mg2+ state; direction: higher = stronger signaling
# Substance: PhoQ, residues 284 288 289 292 302 303 ALVSVA
target,fold induction
"PhoP, residues 12 14 15 18 19 TQCLL (Escherichia coli, UniProt P23836)",17.2
"PhoP, residues 12 14 15 18 19 VHTVL (Escherichia coli, UniProt P23836)",25.2
"PhoP, residues 12 14 15 18 19 ICWRQ (Escherichia coli, UniProt P23836)",9.98
